# Experimental data of several laboratories.
# Each line is one published result; not all experiments were run side by side.
# Target: Serine/threonine-protein kinase ULK3 (ULK3, Homo sapiens, UniProt Q6PHR2)
SMILES,test,system,conditions,scale,measurement,value
COc1ccc(NC(=O)Nc2ccc3c(c2)C(=O)N(C(C)CO)CC(C)C(CN(C)Cc2ccc4c(c2)OCO4)O3)cc1 (centres unmarked),"kinase activity, KinaseProfiler",,"0.03 µM, species human",relative to: control,remaining activity,102%
CC(C)=CC1OC(C)(C)C2C=C3C(=O)C(Cl)=CC(O)C3C3C(O)C4OC4C(=O)C132 (centres unmarked),"cell-free assay, competition with immobilised ligand",,10 µM,,remaining binding,63%
COc1cc(Nc2nc(C)cc(-c3cnn4nc(OC)ccc34)n2)cc(C(F)(F)F)c1,"binding, competition with immobilised ligand",,1 µM,,remaining binding,79%
Cc1ccc(C(=O)Nc2ccc(CN3CCN(C)CC3)c(C(F)(F)F)c2)cc1C#Cc1cnc2cccnn12,"target engagement, NanoBRET",human cells,,,Hill slope,1.11
CN1CC[C@@H](COc2cnc(C#N)cc2-c2ccn3nc(NC(=O)C4CC4)cc3c2)C1,"inhibitor, KinaseProfiler panel",,1 µM,,inhibition,-9%
Cc1cnc2nc1Nc1cccc(c1)COC/C=C/COCc1cc(ccc1OCCN1CCOCC1)N2,,,concentration not given,relative to: DMSO control,remaining binding,99%
CN1CCN(Cc2ccc(-c3ccc(CO[C@H]4CCC[C@@H]4NC(=O)c4cc(-c5cnn(C)c5)cnc4N)cc3)cc2)CC1,"enzyme activity, inhibitor",,0.1 µM,,inhibition,8%
CCN1CCN(Cc2ccc(NC(=O)c3ccc(C)c(NC(=O)c4cncc(-c5cnn(C)c5)c4)c3)cc2C(F)(F)F)CC1,"binding, competition with immobilised ligand",,1 µM,,remaining binding,14%
C=CC(=O)N1Cc2nc(-c3cc(-c4cc(Cl)cnc4Cl)c(F)cc3F)n(-c3ccncn3)c2C1,"cell-free assay, inhibitor",,1 µM,,inhibition,1%
CNC1C[S+]2CC[S+]3CC[S+](C1)[Ru-4]321([N]=C=S)[n]2c3ccc(OC)cc3c3c4c(c5cc(F)c[n+]1c5c32)C(=O)NC4=O (centres unmarked),KinomeScan,,0.1 µM,relative to: untreated,remaining binding,88%
CNC(=O)C[C@H](Cc1ccc(C#N)cc1)NC(=O)c1cc(-c2ccc(CN[C@H](C)c3ccc(C)cc3)o2)ccc1Cl,"enzyme activity, inhibitor",,1 µM,,activity vs control,99%
NC(=O)[C@@H](O)C[C@H]1CCc2sc3ncnc(O[C@H]4CC[C@H](N5CCOCC5)CC4)c3c21,"enzyme activity, inhibitor",,10 µM,,inhibition,2%
C=CC(=O)Nc1cc(-c2nn(C3CCN(CCNC(=O)[C@H](C)CCC45CC6CC(CC(C6)C4)C5)CC3)c3ncnc(N)c23)ccc1Oc1ccccc1,"inhibitor, KiNativ profiling",biochemical,2 µM,,inhibition,2.4%
C=CC(=O)N1CCCC(n2c(=O)c3ncccc3n(Cc3ccc(Oc4ccccc4)cc3)c2=O)C1 (centres unmarked),"cell-free assay, competition with immobilised ligand",,1 µM,,remaining binding,78%

# Some of these lines once more:
SMILES,test,system,conditions,scale,measurement,value
CCN1CCN(Cc2ccc(NC(=O)c3ccc(C)c(NC(=O)c4cncc(-c5cnn(C)c5)c4)c3)cc2C(F)(F)F)CC1,"binding, competition with immobilised ligand",,1 µM,,remaining binding,14%
C=CC(=O)N1Cc2nc(-c3cc(-c4cc(Cl)cnc4Cl)c(F)cc3F)n(-c3ccncn3)c2C1,"cell-free assay, inhibitor",,1 µM,,inhibition,1%
